Assay results gathered from unrelated publications.
Parts stem from different laboratories: compare values within a part only. “And” joins repeats or separate records; there may be more than shown. Substitutions count along the parent as printed.
UniProt O60674, sequence (whole entry, looked up): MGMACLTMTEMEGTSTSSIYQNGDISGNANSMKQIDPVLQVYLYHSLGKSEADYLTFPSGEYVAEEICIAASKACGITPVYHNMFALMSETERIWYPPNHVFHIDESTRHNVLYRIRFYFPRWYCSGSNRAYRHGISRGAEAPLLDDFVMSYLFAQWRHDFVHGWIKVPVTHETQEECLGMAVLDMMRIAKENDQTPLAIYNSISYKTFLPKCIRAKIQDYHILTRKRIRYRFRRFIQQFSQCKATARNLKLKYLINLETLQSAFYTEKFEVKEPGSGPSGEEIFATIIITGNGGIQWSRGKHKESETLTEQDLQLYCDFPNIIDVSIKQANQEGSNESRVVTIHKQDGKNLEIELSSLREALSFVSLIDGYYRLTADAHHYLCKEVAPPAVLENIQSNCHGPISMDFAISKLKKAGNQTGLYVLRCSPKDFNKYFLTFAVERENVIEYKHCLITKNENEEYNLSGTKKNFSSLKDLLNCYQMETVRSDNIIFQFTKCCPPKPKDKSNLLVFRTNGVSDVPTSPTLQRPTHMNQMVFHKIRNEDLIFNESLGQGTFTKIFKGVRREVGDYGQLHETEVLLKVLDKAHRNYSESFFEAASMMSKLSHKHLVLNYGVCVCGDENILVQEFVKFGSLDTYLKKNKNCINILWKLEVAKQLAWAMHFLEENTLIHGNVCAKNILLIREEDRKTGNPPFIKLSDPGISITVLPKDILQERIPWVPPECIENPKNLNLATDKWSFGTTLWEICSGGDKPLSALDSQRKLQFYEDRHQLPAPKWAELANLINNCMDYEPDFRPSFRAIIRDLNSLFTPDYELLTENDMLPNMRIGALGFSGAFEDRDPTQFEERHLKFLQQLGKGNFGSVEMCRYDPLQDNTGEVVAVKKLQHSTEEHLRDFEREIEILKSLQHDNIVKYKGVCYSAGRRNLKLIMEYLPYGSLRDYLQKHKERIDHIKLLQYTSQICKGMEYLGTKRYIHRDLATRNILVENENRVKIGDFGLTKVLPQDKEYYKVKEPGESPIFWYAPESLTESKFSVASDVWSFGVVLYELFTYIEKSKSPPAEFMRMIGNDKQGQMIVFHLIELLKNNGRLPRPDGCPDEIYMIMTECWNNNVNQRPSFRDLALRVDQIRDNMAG

Block 1
Target: HLA class I histocompatibility antigen, A alpha chain, allele A*25:01 (Homo sapiens, UniProt P04439)
Effect on: peptide-MHC binding
Molecule type: peptide
Concentration: concentration not given
Sequence | binding
GRYNLVPPK | inactive
WASGVPAAT | inactive
KVGYFQHGA | inactive
NNIEFNFTY | inactive
WPVMQWLTA | inactive
KTFEWGVFY | inactive
TVFRNQNRV | inactive
APFARLLNL | inactive

Block 2
Target: CCNB1, cyclin fold, Cln2 fusion (human)
Method: yeast growth competition, sequencing
Medium: yeast
Notes: weak parent motif
Relative to: not given
Direction: higher = stronger binding
Starting sequence: viral docking peptide; KKVKRRLFETREL
Change | normalised enrichment score
KKVKRRLFETAEL [R11A] | 1.71
AKVKRRLFETREL [K1A] | 0.783
KKVKRALFETREL [R6A] | 0.635
KKAKRRLFETREL [V3A] | 0.839
KKVKKRLFETREL [R5K] | 0.633
KKVKRRLFETREA [L13A] | 0.247
KKVKRRLFETRAL [E12A] | 0.373
KKVKKRLLETREL [R5K F8L] | -0.0454

Mixed results
Structure (SMILES) | target or system | assay | test system | setting | how to read | measurement | result
CNNCc1ccc(C(=O)NC(C)C)cc1 | HEK-293T | pseudovirus infection, FDA-approved drug library counter-screen | VSV pseudotyped with VSV-G | 10 µM, 16 h | relative to: vehicle-treated | GFP-positive cells | 107%
CN[C@@H]1C[C@H]2O[C@@](C)([C@@H]1OC)n1c3ccccc3c3c4c(c5c6ccccc6n2c5c31)C(=O)NC4 | JAK2 (Homo sapiens, UniProt O60674) | enzyme activity, inhibitor |  | 0.5 µM | relative to: control | remaining activity | 8.94% and 1.85%

For quick reference, copied from above (block 2):
Change | normalised enrichment score
KKVKKRLFETREL [R5K] | 0.633
KKVKRRLFETRAL [E12A] | 0.373
